Published values from different studies.
Numbered parts are unrelated; each lists some results of a single study.

Set 1
Target: Fragile X messenger ribonucleoprotein 1, C-terminal low-complexity region (Fmr1, Mus musculus, UniProt P35922)
Technique: RNA Bind-n-Seq
Form: RNA
Sample: in vitro
Tested at: 200 nM
Notes: whole 134-nt RNA, ends assumed
Together with: 150 mM LiCl
Reference: input library
Direction: higher = stronger binding
Library: 7-deaza-guanosine replaces G
Constant ends, left off below: GGGAGUUCUACAGUCCGACGAUC … UGGAAUUCUCGGGUGUCAAGG
Strand | log2 enrichment
CUGUGCUACACAUCGUAUGUACCGAAUCGGGGAAAAAAAGGGGAAAAAAAGGGAAAAAAAGGAAAGUAUUAUGUUACGCCGUUCGGAUCU | 0.341
ACCAUGCAGGUGGGCAUCUUUGGGAAGUGGGGCAAGGGGGGUAUAGGGAGGGGGGUAACACUUUGGGAACAGGUGGUCCCAGGUCGUUUC | 0.871
UCCUGUGCUACACAUCGUAUGUACCGAAUCGGGGUUUUUUUGGGGUGGGGUUUUUGGGGAAAGUAUUAUGUUACGCCGUUCGGAUCUGCA | -1.53
CCUCAAGUCCUGUGCUACACAUCGUAUGUACCGAAUCGGGGUGGUGGUGGGGAAAGUAUUAUGUUACGCCGUUCGGAUCUGCACUUCCAG | -0.31
CUCAAGUCCUGUGCUACACAUCGUAUGUACCGAAUCGGGGAGGGGAGGGGAGGGAAAGUAUUAUGUUACGCCGUUCGGAUCUGCACUUCC | -0.11
UCCUCAAGUCCUGUGCUACACAUCGUAUGUACCGAAUCGGUGGGUGGUGGGAAAGUAUUAUGUUACGCCGUUCGGAUCUGCACUUCCAGC | 0.413
CUGUGCUACACAUCGUAUGUACCGAAUCGGGUUUUUUUGGGUUUUUUUGGGUUUUUUUGGGAAAGUAUUAUGUUACGCCGUUCGGAUCUG | 0.683
UCAAGUCCUGUGCUACACAUCGUAUGUACCGAAUCGGGAAAGGGGAAAGGAAAGGAAAGUAUUAUGUUACGCCGUUCGGAUCUGCACUUC | -1.84

Set 2
Target: PABPC1L2, full length, GST fusion (mouse, UniProt A0ABA7IW68)
Technique: RNAcompete
Form: RNA
Sample: in vitro
Tested at: 20 nM
Notes: 7-mer, probes averaged, single round
Reference: mean of 7-mers
Direction: higher = stronger binding
Residues (chain): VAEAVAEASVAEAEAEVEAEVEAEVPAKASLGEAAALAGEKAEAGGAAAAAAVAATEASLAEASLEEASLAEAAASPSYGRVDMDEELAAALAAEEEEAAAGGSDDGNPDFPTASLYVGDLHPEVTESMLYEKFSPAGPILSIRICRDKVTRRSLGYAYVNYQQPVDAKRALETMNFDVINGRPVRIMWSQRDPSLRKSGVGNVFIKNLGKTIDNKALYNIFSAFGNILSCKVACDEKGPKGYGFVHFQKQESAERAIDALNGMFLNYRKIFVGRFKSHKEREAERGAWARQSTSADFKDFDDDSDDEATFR
Strand | 7-mer Z-score
ACUCGAA | -0.157
CAAGGAU | -0.0047
GCGCGAC | -0.0482
GCAAGAG | 0.186
AAACAGU | 3
CCGUGUG | -0.0591
GGAAAUC | 0.115
CGGGGAG | 0.341
GCCAAUU | -0.329
UGGAUAA | 0.358
CGUCCAU | -0.289

Set 3
Target: Histone acetyltransferase KAT6A, both winged helices, GST fusion (KAT6A, Homo sapiens, UniProt Q92794, residues 1-181)
Technique: protein binding microarray
Form: double-stranded DNA, one strand shown
Sample: in vitro
Tested at: not given
Notes: 8-mer, flanks averaged, mean of 2 arrays, mostly near background
Reference: not given
Direction: higher = stronger binding
Construct (chain): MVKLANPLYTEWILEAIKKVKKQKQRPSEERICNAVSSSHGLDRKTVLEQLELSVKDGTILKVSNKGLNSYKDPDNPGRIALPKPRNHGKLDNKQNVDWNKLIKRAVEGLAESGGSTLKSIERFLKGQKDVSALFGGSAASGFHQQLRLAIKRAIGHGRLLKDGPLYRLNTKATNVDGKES
Strand | E-score
AATTTAAC | -0.0193
GGAGTTAA | -0.0157
ATTCTACA | -0.0957
AACACACC | 0.031
GAAGACCC | -0.181
ACAACTAT | -0.0169
CCGCCACA | 0.118
CGACATAG | -0.0526
CTGGCTTC | -0.0678

Other studies, line by line
Substance | target | test | test system | conditions | how to read | quantity | value
PhoQ, residues 284 288 289 292 302 303 DDMDFR | PhoP, residues 12 14 15 18 19 LHSVQ (Escherichia coli, UniProt P23836) | Sort-seq, item: YFP reporter | E. coli | PhoQ-PhoP variant library, together with: 10 µM Mg2+ | reference: high Mg2+ state, higher = stronger signaling | fold induction | 0.832

Some of these lines once more (set 2):
Strand | 7-mer Z-score
GGAAAUC | 0.115
CGGGGAG | 0.341
